Experimental data collected from several papers.
Numbered parts are unrelated; each lists some results of a single study.
Sequence of UniProt P42336 (whole entry, unmodified, looked up): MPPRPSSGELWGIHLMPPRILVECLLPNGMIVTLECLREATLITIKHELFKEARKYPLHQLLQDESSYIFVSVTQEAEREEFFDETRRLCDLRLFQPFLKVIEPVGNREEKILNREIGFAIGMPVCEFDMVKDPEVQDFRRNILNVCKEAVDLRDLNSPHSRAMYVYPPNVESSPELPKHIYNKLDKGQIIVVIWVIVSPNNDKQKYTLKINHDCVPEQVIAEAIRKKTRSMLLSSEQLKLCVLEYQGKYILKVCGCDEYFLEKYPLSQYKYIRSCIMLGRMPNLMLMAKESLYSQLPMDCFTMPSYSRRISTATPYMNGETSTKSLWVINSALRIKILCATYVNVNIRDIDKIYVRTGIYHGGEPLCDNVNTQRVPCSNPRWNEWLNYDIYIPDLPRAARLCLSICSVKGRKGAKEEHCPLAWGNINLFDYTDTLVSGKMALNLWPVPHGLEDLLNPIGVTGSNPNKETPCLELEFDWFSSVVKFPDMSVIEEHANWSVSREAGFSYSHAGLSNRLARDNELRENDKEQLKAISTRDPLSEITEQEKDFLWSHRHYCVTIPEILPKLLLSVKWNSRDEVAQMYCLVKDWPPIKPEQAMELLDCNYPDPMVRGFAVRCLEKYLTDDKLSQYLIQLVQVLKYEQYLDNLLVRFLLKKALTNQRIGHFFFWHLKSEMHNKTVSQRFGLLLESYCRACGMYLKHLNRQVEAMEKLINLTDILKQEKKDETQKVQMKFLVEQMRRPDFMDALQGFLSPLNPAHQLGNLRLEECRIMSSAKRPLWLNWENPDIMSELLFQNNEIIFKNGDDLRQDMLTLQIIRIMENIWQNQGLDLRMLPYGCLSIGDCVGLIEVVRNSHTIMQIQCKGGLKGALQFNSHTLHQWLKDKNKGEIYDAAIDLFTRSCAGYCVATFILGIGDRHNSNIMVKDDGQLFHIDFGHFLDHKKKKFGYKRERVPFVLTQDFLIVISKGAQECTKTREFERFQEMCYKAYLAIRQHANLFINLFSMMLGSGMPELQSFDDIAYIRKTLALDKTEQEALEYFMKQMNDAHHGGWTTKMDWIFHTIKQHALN
Sequence of UniProt Q15418 (whole entry, looked up): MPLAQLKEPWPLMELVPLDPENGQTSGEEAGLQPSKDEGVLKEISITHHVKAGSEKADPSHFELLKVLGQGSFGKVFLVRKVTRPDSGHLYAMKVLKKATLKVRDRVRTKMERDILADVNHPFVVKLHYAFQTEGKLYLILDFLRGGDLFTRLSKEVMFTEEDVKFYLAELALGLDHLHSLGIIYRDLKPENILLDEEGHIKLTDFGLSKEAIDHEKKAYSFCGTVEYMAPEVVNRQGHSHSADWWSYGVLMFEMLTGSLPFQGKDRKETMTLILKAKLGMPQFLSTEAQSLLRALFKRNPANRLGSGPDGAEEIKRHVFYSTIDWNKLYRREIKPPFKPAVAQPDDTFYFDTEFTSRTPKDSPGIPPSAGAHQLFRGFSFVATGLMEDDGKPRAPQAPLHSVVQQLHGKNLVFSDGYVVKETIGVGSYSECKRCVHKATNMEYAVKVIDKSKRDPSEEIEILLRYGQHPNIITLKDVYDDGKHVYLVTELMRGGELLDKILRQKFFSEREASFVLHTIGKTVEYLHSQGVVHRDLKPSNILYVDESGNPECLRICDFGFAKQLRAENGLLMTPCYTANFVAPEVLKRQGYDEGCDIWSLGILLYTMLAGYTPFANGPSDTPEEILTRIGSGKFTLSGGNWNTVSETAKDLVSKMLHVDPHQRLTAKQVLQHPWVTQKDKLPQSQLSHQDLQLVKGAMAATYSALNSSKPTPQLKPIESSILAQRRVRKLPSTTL
Sequence of UniProt Q04771 (whole entry, looked up): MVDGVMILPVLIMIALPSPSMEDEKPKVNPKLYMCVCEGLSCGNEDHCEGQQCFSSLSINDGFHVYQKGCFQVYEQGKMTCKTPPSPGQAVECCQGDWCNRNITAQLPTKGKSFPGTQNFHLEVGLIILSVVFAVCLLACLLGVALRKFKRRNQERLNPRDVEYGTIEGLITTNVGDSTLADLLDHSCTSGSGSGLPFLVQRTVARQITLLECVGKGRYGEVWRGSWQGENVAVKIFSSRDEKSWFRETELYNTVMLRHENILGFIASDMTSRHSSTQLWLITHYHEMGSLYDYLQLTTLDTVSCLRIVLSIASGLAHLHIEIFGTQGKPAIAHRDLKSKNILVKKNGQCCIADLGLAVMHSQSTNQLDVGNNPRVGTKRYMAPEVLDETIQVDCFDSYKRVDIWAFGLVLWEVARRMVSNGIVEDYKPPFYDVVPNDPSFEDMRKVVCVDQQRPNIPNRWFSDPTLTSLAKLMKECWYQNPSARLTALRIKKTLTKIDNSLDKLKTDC
Sequence of UniProt Q9NWZ3 (whole entry, looked up): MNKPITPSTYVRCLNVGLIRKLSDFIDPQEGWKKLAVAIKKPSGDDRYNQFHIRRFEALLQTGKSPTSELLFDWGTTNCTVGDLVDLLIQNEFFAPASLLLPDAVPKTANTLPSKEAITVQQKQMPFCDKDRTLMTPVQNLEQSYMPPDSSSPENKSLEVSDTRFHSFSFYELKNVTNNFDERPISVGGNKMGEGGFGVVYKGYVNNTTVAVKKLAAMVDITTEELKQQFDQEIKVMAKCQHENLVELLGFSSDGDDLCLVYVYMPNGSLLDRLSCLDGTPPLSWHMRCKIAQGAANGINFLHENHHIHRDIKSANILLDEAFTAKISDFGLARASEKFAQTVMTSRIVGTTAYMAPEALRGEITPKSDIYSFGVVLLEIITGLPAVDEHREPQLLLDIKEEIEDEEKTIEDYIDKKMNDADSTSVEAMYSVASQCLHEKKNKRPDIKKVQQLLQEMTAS
Sequence of UniProt P23443 (whole entry, looked up): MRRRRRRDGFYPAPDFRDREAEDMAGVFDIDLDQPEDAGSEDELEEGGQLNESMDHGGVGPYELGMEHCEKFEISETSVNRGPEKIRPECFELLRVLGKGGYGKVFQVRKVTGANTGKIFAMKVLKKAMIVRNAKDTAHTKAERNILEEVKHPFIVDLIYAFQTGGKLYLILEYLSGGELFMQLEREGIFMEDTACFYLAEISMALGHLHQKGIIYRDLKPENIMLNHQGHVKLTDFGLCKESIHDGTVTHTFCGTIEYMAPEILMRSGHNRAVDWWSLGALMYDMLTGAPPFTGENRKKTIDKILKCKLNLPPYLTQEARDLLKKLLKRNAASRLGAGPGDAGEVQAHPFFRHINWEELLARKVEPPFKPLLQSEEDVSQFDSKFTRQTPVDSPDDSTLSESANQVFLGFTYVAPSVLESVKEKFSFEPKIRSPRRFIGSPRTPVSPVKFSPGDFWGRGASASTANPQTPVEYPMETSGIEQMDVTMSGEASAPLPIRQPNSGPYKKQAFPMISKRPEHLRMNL
Sequence of UniProt P29320 (whole entry, looked up): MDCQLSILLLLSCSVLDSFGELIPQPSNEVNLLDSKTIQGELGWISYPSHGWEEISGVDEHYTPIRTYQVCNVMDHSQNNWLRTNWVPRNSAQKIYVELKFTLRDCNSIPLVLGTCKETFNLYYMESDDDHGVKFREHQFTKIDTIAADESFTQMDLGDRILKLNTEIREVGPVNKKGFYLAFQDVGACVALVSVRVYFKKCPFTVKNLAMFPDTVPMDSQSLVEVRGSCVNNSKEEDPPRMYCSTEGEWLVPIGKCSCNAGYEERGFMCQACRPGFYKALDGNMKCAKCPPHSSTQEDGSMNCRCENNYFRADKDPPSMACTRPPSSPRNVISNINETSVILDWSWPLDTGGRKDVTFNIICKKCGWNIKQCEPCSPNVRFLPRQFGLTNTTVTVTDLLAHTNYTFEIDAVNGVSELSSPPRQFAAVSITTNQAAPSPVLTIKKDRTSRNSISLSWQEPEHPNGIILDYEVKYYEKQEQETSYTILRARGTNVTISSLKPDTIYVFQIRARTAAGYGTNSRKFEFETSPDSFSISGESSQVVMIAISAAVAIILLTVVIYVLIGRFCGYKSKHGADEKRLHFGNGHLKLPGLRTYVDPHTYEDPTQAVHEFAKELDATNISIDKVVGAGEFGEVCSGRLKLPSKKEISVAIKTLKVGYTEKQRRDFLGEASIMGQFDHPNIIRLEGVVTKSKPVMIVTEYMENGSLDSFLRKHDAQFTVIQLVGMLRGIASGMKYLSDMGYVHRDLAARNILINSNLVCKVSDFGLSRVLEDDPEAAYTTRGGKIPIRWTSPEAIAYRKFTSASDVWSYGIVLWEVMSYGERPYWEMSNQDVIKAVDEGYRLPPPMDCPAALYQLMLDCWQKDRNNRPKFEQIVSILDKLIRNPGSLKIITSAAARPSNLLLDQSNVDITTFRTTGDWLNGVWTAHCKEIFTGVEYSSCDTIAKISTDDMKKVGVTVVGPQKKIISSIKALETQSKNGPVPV

Study 1
Structure (SMILES): O=C(Nc1cccnn1)N1CCC(=Cc2cccc(Oc3ccc(C(F)(F)F)cn3)c2)CC1
Read-out: cell-free assay
Method: competition with immobilised ligand
Concentration: 1 µM
target | remaining binding
Serine/threonine-protein kinase WNK2 (WNK2, Homo sapiens, UniProt Q9Y3S1) | 92%
Tyrosine-protein kinase Fyn (FYN, Homo sapiens, UniProt P06241) | 100%
Activin receptor type-1 (ACVR1, Homo sapiens, UniProt Q04771) | 92%
Ribosomal protein S6 kinase beta-1 (RPS6KB1, Homo sapiens, UniProt P23443) | 100%
Phosphatidylinositol 4,5-bisphosphate 3-kinase catalytic subunit alpha isoform (PIK3CA, Homo sapiens, UniProt P42336, C420R) | 100%
Serine/threonine-protein kinase mTOR (MTOR, Homo sapiens, UniProt P42345) | 87%
Cyclin-dependent kinase 3 (CDK3, Homo sapiens, UniProt Q00526) | 100%
Dual specificity mitogen-activated protein kinase kinase 3 (MAP2K3, Homo sapiens, UniProt P46734) | 100%
Mitogen-activated protein kinase kinase kinase 9 (MAP3K9, Homo sapiens, UniProt P80192) | 100%
Serine/threonine-protein kinase ULK3 (ULK3, Homo sapiens, UniProt Q6PHR2) | 100%
Phosphorylase b kinase gamma catalytic chain, skeletal muscle/heart isoform (PHKG1, Homo sapiens, UniProt Q16816) | 100%
Phosphatidylinositol 4,5-bisphosphate 3-kinase catalytic subunit alpha isoform (PIK3CA, Homo sapiens, UniProt P42336) | 100%
Misshapen-like kinase 1 (MINK1, Homo sapiens, UniProt Q8N4C8) | 100%
Interleukin-1 receptor-associated kinase 4 (IRAK4, Homo sapiens, UniProt Q9NWZ3) | 97%
Macrophage-stimulating protein receptor (MST1R, Homo sapiens, UniProt Q04912) | 92%
Ribosomal protein S6 kinase alpha-1, N-terminal kinase domain (RPS6KA1, Homo sapiens, UniProt Q15418) | 100%
Mitogen-activated protein kinase 9 (MAPK9, Homo sapiens, UniProt P45984) | 100%
Serine/threonine-protein kinase SIK3 (SIK3, Homo sapiens, UniProt Q9Y2K2) | 83%
Serine/threonine-protein kinase Nek9 (NEK9, Homo sapiens, UniProt Q8TD19) | 100%
Mitogen-activated protein kinase 7 (MAPK7, Homo sapiens, UniProt Q13164) | 100%
Cyclin-dependent kinase 4, with cyclin D1 (CDK4, Homo sapiens, UniProt P11802) | 100%
Ephrin type-A receptor 3 (EPHA3, Homo sapiens, UniProt P29320) | 100%
Tyrosine-protein kinase JAK1, JH1 (JAK1, Homo sapiens, UniProt P23458) | 97%
Serine/threonine-protein kinase D1 (PRKD1, Homo sapiens, UniProt Q15139) | 100%
5'-AMP-activated protein kinase catalytic subunit alpha-2 (PRKAA2, Homo sapiens, UniProt P54646) | 100%

Study 2
Method: PRP-column chromatography
SMILES | log k' (60)
CCOC(=O)[C@@H]1CSCC(=O)N[C@H](CC)C(=O)N(CC(C)C)CC(=O)N[C@H](CC(C)C)C(=O)N(C)[C@H](C)C(=O)N(C)[C@@H](C)C(=O)N[C@H](CC(C)C)C(=O)N(C)[C@H](C)C(=O)N[C@@H](CC(C)C)C(=O)N1C | 0.802
CCOC(=O)[C@@H]1CSCC(=O)N[C@H](CC)C(=O)N(CC(C)C)CC(=O)N[C@@H](CC(C)C)C(=O)N2CCC[C@@H]2C(=O)N(C)[C@@H](C)C(=O)N[C@H](CC(C)C)C(=O)N(C)[C@H](C)C(=O)N[C@@H](CC(C)C)C(=O)N1C | 0.603
CCOC(=O)[C@@H]1CSCC(=O)N[C@H](CC)C(=O)N(C)[C@@H](C)C(=O)N[C@@H](CC(C)C)C(=O)N2CCC[C@@H]2C(=O)N(CC(C)C)CC(=O)N[C@H](CC(C)C)C(=O)N(C)[C@H](C)C(=O)N[C@@H](CC(C)C)C(=O)N1C | 0.567

Study 3
Cell line: A-375
Concentration: 100 µM
Time: 36 h
Compound | viability [%]
O=[N+]([O-])c1cncn1CCN1CCOCC1 | 104
CNC(=O)c1ccccc1Sc1ccc2c(/C=C/c3ccccn3)n[nH]c2c1 | 24.1
C=CC1=C(C(=O)O)N2C(=O)[C@@H](NC(=O)/C(=N\OCC(=O)O)c3csc(N)n3)[C@H]2SC1 | 103
COc1ccc2[nH]cc(CCNC(C)=O)c2c1 | 99.7
CN1C(=O)OC(C)(C)C1=O | 141
CC(C)[N+](C)(CCOC(=O)C1c2ccccc2Oc2ccccc21)C(C)C | 98.7
CN(C)CCC(c1ccccc1)c1ccccn1 (centres unmarked) | 107
Cc1onc(-c2ccccc2)c1C(=O)N[C@@H]1C(=O)N2[C@@H]1SC(C)(C)[C@@H]2C(=O)O | 104
Cc1ccc(O)cc1 | 109
C[N+]1(C)[C@@H]2CC[C@H]1C[C@@H](OC(=O)C(O)c1ccccc1)C2 (some centres unmarked) | 102
CN(Cc1ccc(C(C)(C)C)cc1)Cc1cccc2ccccc12 | 24.4

Study 4
Target: Calcium/calmodulin-dependent protein kinase type II subunit alpha (CAMK2A, Homo sapiens, UniProt Q9UQM7)
Sequence of UniProt Q9UQM7 (whole entry, looked up): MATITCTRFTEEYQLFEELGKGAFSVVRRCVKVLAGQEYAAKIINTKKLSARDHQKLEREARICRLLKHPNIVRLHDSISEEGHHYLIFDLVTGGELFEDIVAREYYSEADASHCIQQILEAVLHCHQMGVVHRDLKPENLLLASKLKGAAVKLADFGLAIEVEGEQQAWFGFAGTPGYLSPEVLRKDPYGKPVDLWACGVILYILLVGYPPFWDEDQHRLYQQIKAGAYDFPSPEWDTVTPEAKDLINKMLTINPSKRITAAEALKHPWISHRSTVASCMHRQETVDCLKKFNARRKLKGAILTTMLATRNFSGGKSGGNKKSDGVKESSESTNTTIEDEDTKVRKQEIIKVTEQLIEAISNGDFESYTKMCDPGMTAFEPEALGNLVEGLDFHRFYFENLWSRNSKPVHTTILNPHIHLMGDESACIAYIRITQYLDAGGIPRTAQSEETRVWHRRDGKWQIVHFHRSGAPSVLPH
Read-out: enzyme activity
Mode: inhibitor
Concentration: 10 µM
SMILES | inhibition [%]
Cn1cnc(C[C@H](N)C(=O)O)c1 | -13
CN1CCN(CC/C=C2/c3ccccc3Sc3ccc(S(=O)(=O)N(C)C)cc32)CC1 | 2
COc1ccc(-c2coc3cc(O[C@@H]4O[C@H](CO)[C@@H](O)[C@H](O)[C@H]4O)c(OC)c(O)c3c2=O)cc1O | -12
O=C1O[C@@H]2[C@@H](O)[C@H](O)[C@@H](CO)O[C@H]2c2c1cc(O)c(O)c2O | -8
Cc1noc(NS(=O)(=O)c2ccc(N)cc2)c1C | 6
COc1c(/C=C/C(=O)c2ccc(O)c(O)c2)ccc(O)c1O | 5
CCCCCCCCCCCC(C)=O | -19
Cc1ccccc1C(=O)O | -27
COC[C@@H](Cc1ccc(OC)c(OC)c1)[C@@H](COC)Cc1ccc(OC)c(OC)c1 | -27
C/C=C1\[C@H](O[C@@H]2O[C@H](CO)[C@@H](O)[C@H](O)[C@H]2O)OC=C(C(=O)OC)[C@H]1CC(=O)OC[C@H]1O[C@@H](OCCc2ccc(O)cc2)[C@H](O)[C@@H](O)[C@@H]1O | -23
Nc1nc(O)c2c(n1)NC[C@H](CNc1ccc(C(=O)N[C@@H](CCC(=O)O)C(=O)O)cc1)N2C=O | 0

Excerpt of the above (study 1):
target | remaining binding
Phosphatidylinositol 4,5-bisphosphate 3-kinase catalytic subunit alpha isoform (PIK3CA, Homo sapiens, UniProt P42336) | 100%
Tyrosine-protein kinase JAK1, JH1 (JAK1, Homo sapiens, UniProt P23458) | 97%
5'-AMP-activated protein kinase catalytic subunit alpha-2 (PRKAA2, Homo sapiens, UniProt P54646) | 100%
Interleukin-1 receptor-associated kinase 4 (IRAK4, Homo sapiens, UniProt Q9NWZ3) | 97%
